Measurements from different studies.
Parts stem from different laboratories: compare values within a part only.

Block 1
Target: Histone acetyltransferase KAT6A, winged helix 2, GST fusion (KAT6A, Homo sapiens, UniProt Q92794, residues 85-181)
Method: protein binding microarray
Molecule type: double-stranded DNA, one strand shown
Matrix: in vitro
Tested at: not given
Setting: 8-mer, flanks averaged, mean of 2 arrays, mostly near background
Baseline: not given
Reading: higher = stronger binding
Construct (chain): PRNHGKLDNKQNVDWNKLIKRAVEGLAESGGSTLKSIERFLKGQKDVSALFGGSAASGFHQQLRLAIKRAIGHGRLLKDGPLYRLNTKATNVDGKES
| Sequence | E-score |
| --- | --- |
| ACTTACCT | -0.236 |
| ACATGGTC | -0.0797 |
| CTAAATAG | -0.0104 |
| ACTGTGCT | 0.0329 |
| AGACCATG | -0.102 |
| GAGCTCGA | 0.177 |
| GGTCCACA | -0.173 |
| AGCCTGAA | 0.00783 |
| AAATCGGC | 0.147 |
| CATCTTCC | 0.0685 |
| CTAGATTA | 0.0671 |
| AACCTAAG | -0.113 |
| CTTAAGCC | 0.0212 |
| GCGACGCC | 0.193 |
| ACCACCTC | -0.0862 |
| ACACCTAG | -0.123 |
| ATTTCATG | -0.0278 |
| GGACATGA | -0.0988 |
| AACCATAA | -0.0424 |
| CAATGTCA | -0.00695 |
| AGTCCTTG | -0.044 |
| AAAGCGAC | 0.0715 |
| CCACGAGA | -0.0169 |
| ATGTTGGG | -0.0463 |
| GGATAAGA | -0.266 |

Block 2
Target: RING finger protein unkempt homolog, zinc fingers 1-6, GST-SBP tag (UNK, Homo sapiens, UniProt Q9C0B0, residues 30-357)
Method: RNA Bind-n-Seq
Molecule type: RNA
Matrix: in vitro
Tested at: not given
Setting: RNA with constant flanks, ends assumed
Baseline: input RNA pool
Reading: higher = stronger binding
Target sequence (chain): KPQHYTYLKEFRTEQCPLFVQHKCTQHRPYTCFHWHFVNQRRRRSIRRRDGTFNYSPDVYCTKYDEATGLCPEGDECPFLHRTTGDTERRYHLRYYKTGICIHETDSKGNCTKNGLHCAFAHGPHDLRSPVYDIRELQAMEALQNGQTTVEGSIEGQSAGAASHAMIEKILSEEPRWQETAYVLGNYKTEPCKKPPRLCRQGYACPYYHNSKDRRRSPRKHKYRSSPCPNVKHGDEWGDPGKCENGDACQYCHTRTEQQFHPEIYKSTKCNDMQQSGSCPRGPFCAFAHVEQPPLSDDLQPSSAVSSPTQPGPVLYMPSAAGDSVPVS
| Sequence | bound/input enrichment |
| --- | --- |
| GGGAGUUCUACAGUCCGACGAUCUGUCCCUCUGCCCCAUCCCUCACAUGGGAUGGUCCCUAGGCCAGGCCUCUCUUCUCUGCCCCGCUACCCCUGUGCUACCUCCCACAUGCUGGGUUCUGGAAUGCAGAGCCUAGGCUCUCUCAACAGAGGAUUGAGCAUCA | 0.212 ratio |
| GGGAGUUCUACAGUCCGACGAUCUUCCUGACCCGGCCUAAGGUCCCUGUCUUGCAGCUGGAUAGCGGCAACUACCUCUUCUCCACCCGUGCAAUCUGCCGAUAUUUUUUUUUGUUAUCUGGCUGGGAGCAAGAUGACCUCACUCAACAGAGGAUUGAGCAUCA | 0.397 ratio |
| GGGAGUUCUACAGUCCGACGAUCAUGGCCAAUGUGCUUUGUAACAGAGCCAGACUGGUUUCCUAUCUCCCAGGAUUUUGCUCUUCCGUUAAAAGGGUUGUCAAUCCCAAAGCCUUUUCGACUGCAGGAUCAUCAGGUUCGGAUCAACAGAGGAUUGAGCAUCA | 0.077 ratio |
| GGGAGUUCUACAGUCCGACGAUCCAUCGCAUGCCCAGGGACCACUGCCUGGCAUUAUCGCAUGCUGGGAUCAUCGGGGGAGGGCCGUGAAGCUCACCACUGUCCUUUGUUUUGGAGAUUUUUAUUUUUGCAUAAGUAGUCCAUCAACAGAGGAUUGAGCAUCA | 0.0888 ratio |
| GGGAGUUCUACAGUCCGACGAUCCAGCACUGCCUCUCUGUUUGGGGAGAUGUAAUGCUGGAAGAUCUUAAGGACUACAUACAUUCCCGAGAUGACAGUGUUGUUCAAAGACAGCCUAGUAAGUAAUUGGUAGAAAUGCCCUUACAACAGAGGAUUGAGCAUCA | 0.128 ratio |
| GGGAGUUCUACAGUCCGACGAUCCACCGGAGGCAUUUUCCCAACUGUCCAUUUUUGGAAAAUUCUCUAGAAACUCUGAGGUUCCGCAUUUCAAAUCUGAGCAUGCAGACACAUGCAGCUCGAAUGAGAACAUUUAUGUACUGGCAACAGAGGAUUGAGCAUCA | 0.0885 ratio |
| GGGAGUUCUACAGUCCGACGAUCAAUUCAUCCCUCGUGCACAUCCUGUUGUGUUUAAGUCACCAGAUAUUUUGUUCCCAUCAGUUCCGCCCAGAGAUAGACAGUAGAAUGCAAAUACCUCCCUCCCCUAAACUGACUGGACGGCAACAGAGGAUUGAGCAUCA | 1.07 ratio |
| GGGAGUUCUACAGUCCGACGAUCUAGCUUGAGCUUUCUUUUUGGCCAUCUUUUAAAACUUUUUUUUUUUUUUUUGAUCUAUAAAACCGACAAGAGAUAGUUCUACAAUGUCCAAGUCAUUCCAGCAGUCAUCUCUCGGUAGGGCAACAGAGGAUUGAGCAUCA | 2.06 ratio |
| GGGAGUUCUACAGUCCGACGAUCUUGUUGAAGAACCAGCUGUCUGAUCCUGAUAUAAAGGAUGACCAGAUCAUUAACUGGCUACCCGAAUUUCGUUCCUCUGUCAUGUACUUGACAAAAGACUUUGAGCAACUUAUAAACAUCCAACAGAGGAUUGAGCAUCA | 0.105 ratio |
| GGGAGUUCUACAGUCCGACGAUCAUUAUUUUUAAUGAAAUGCCAAUAUAAUUUUUUAAGAAAGCAGUAAAUUCUCAUCAUGAUCACCGGCAGUUGAAAACUUUUUACUCAUUUUUUUCAUGUUUUACAUGAAAAUAAUGCUUUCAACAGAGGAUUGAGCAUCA | 0.274 ratio |
| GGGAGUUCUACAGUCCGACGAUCGACCCAAGUAAUCCAAUUCGAAGACCAAUUUCAGCAGACAGCGCCAUCAUGAAUCCAGCCCGCAAAGUAAUUGCACUGAAAGCUGGGAAAACUCUUCAGAUUUUUAACAUUGAAAUGAAACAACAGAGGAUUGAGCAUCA | 0.469 ratio |

Block 3
Target: Interferon regulatory factor 7, full length, phosphomimetic (IRF7, Homo sapiens, UniProt Q92985, residues 1-503, S471D/S472D/S475D/S476D/S477D/S483D/S484D/S487D)
Method: protein-binding microarray
Molecule type: double-stranded DNA, one strand shown
Matrix: in vitro
Tested at: 2200 nM top
Setting: 60-bp whole probe
Together with: salmon DNA 0.4 mg/ml
Baseline: random background probes
Reading: higher = stronger binding
Shared flanks, not repeated: GCCTAGCAC … GTCTTGATTCGCTTGACGCTGCTG
Target sequence (chain): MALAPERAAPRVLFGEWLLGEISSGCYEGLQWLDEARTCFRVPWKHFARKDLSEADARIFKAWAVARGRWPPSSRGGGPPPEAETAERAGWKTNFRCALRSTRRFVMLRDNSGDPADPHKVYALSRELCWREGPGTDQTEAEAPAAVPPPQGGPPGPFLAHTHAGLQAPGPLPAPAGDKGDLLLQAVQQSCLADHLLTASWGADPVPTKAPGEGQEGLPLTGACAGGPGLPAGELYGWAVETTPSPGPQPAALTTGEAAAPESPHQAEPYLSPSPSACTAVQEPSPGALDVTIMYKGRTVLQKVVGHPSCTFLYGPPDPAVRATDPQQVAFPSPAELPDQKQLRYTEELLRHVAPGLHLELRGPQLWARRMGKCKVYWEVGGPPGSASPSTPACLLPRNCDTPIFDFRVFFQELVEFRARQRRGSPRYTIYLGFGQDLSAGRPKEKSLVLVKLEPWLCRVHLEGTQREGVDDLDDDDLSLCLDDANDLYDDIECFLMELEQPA
| Sequence | fitted relative affinity |
| --- | --- |
| TCATTTCTCAACCTCCAACTGTGCTAG | 2.36 z-score |
| GACGGACTGGGCCTCGGGACGTGCTAG | -1.16 z-score |
| TAAGCAAAAATGATTGGTTGGTGCTAG | -0.292 z-score |
| TTAGGACTGGGGACGGGGTTAGTGCTA | -0.121 z-score |
| TCAGAGATTTTTCTCAAACTGTGCTAG | -0.627 z-score |
| GACGAACTGAGTATCTAGACGTGCTAG | -0.353 z-score |
| TATTACCTCATCTTTCCCTGCGTGCTA | 2.11 z-score |
| TTAGATATCGGTACTGGATTAGTGCTA | 0.265 z-score |
| ATAGGACTGGGGTTTCGGTTAGTGCTA | 2.88 z-score |
| TTAGGTTCCGACACTGGGTTAGTGCTA | 0.23 z-score |
| TTAAGTATCGGACTGGGTTAGTGCTAG | 0.00798 z-score |
| TTATATTTCAGTTTCGATTAGTGCTAG | 8.48 z-score |
| AACGATTTCGGGTATCGAGACGTGCTA | 3.01 z-score |
| TTAGGACTGGGTATCGGTTAGTGCTAG | -0.356 z-score |
| GACGGTATCGACAATCGGGACGTGCTA | 0.0261 z-score |
| GACGGTATCGACTTTCGGGTCGTGCTA | 6.41 z-score |
| GACGGTCTCGGTCGCGGGACGTGCTAG | -0.477 z-score |
| TATGTTCCCTATTTAAGGCTGTGCTAG | 1.81 z-score |
| TTAGAACTGAGAATCGATTAGTGCTAG | -0.713 z-score |
| TCACTTTTCATTACTGCACTGTGCTAG | 3.52 z-score |
| GACGGTTTCGGGTATCGGGGCGTGCTA | 6.14 z-score |

Block 4
Target: RNA binding protein fox-1 homolog 2, RRM domain, GST-SBP tag (RBFOX2, Homo sapiens, UniProt O43251-10, residues 100-194)
Method: RNA Bind-n-Seq
Molecule type: RNA
Matrix: in vitro
Tested at: 365 nM
Setting: natural RNA segment, single round, ends assumed
Baseline: no-protein control
Reading: higher = stronger binding
Target sequence (chain): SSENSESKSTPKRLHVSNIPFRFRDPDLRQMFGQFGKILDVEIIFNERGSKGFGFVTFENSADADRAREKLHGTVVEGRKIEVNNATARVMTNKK
| Sequence | RBNS enrichment (R) |
| --- | --- |
| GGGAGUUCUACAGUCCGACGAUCGUUUUAGUAUUUUCUACCUCUUAAUAAGCACCAUAUUUUAGAUCUUGUAUAAAAAGUUGCCAUCUGCCUUAUAGACAAAUGUAGAGAAUUGAUGUUCUUGCUUUGUGUUGUGGAAUUCUCGGGUGCCAA | 0.777 |
| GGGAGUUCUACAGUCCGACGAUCAUGUGCAUUCAAAAGGAAUAGAACGAAUUUCUGUCAUCCCGGUGACCCUCCUGGUGCCGGGCUCUUGUUGUCAUAAAGUUCUCCCAUAUUUCUAUAAGGAUGGAUUUAUAUGGAAUUCUCGGGUGCCAA | 0.479 |
| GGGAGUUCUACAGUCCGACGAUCCCCACUCUGUAAGUGUUUUGGAGUCUGACUAUUGCAGACACCCUCUGGCUGGGCUGCUCAGGGUGACAUCAUAGCACCUCUGGGAAUGCUGCCGAAGAACCCCAUGGUCCUGGAAUUCUCGGGUGCCAA | 0.277 |
| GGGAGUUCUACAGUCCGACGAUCUGAAGGGCUAGAGUUUUAACUUUUAAUUUUUUAUAUUUAAAUGUAGACUUUUGACACUUUUAAAAAACAAAAAAAGACAAGAGAGAUGAAAACGUUUGAUUAUUUUCUCAUGGAAUUCUCGGGUGCCAA | 1.23 |
| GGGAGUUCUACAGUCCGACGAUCCCAGCUCAAGUGCCGCCCCCUCACCGCCAAUUCUCAACUGGUUGCCGUGUACACUGAUUACAUUUCAGGAGGACGUGUUCUAUUUAUGUUGUGCCUCUGCAGGCAAAGCCUGGAAUUCUCGGGUGCCAA | 0.562 |
| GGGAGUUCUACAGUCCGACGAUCUGGCUUGUGUUAUCGGACAUUCUAAUGCAUAUUUAUAAGAGAAGUUUAACAAGUAUUUAUUCCCAUACUUCCCCUUGCAGACUGUUUUCUUCUGGCCUUUAGGCCUCUGCUGGAAUUCUCGGGUGCCAA | 1.97 |
| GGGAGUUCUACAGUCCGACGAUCACAGUGUACAGCCUUUGACAAACUAGAAAUAUUAGAGUAGGCCAAACACACCUCCAAACUGUAAGGCUGUGCACAAACAUAAAAAAUGGCAGCCUUCCAUCUCCUGCACUUGGAAUUCUCGGGUGCCAA | 0.299 |
| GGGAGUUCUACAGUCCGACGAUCCACAUGCCAUUUCCCCAGCCUCAUUUGCUGGUGUCUGUAGGGUCCUCCCAAGGUGAGCUGAGGGCUGCAGGUGCUAGCCAGGAACAUGGGAGCUUGACUGUGGCUUCAGGUGGAAUUCUCGGGUGCCAA | 0.672 |
| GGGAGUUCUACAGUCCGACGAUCAAAUUCAGUAAUGCAGUUUUUAAAAACCUGUAUCUGACCCACUUUGUAAUUUUUGCUCCAAUAUCCAUUCUGUAGACUUUUGAAAAAAAAGUUUUUAAUUUGAUGCCCAAUGGAAUUCUCGGGUGCCAA | 1.03 |
| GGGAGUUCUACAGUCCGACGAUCGCAGGGGGCAGGGUGGGGCCUGAGAGUGGCUUCAAGUCGGCAGGGUUCUGCUGCCCCUGAUGCUCAUGGGUCUGUCCCGGGGAAAGAGGCAAGCAGGAGGCUGAGCCAGGUGGAAUUCUCGGGUGCCAA | 0.685 |
| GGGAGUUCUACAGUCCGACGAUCCUCUGAAGUCAUUAACAUUGAAAUCUGCACCAGGAGGCAACAGGGGAAAAAAAAGUUUGAUCUUCUUUUCCAGUAGAGAAUAGUUUGUGAAAUGAUAAGGGCAUUCUAUCUGGAAUUCUCGGGUGCCAA | 1.1 |
| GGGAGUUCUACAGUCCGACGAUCCCUUCCGCAGCUCCUAGUCUCGUCCGUGACUUUCCGGUUGCCCUGGAUCUCAGAAUAUAUUCGUCCACCCCCUCGGCACCCCAUUACCCCGAGUCCCACCGUGUGUCCGUUGGAAUUCUCGGGUGCCAA | 0.202 |
